Measured values from different studies.
A part holds a random share of what one study measured. “And” joins repeats or separate records; there may be more than shown.

Block 1
Cell line: P493B lymphoma cells
Sample: P493B cells in human plasma
Tested at: concentration not given
Notes: tumour cell fraction of partition
The DON concentration of COCCOCCOC(=O)[C@H](CCC(=O)C=[N+]=[N-])NC(=O)[C@H](Cc1c[nH]c2ccccc12)NC(=O)CN(C)C is reported as 2.05 nmol/g.
With [2H]C([2H])([2H])OC(=O)[C@H](CCC(=O)C=[N+]=[N-])NC(=O)[C@H](Cc1c[nH]c2ccccc12)NC(C)=O the DON concentration was 2.23 nmol/g.
CC(=O)N[C@@H](Cc1c[nH]c2ccccc12)C(=O)N[C@@H](CCC(=O)C=[N+]=[N-])C(N)=O gave a DON concentration of 0.86 nmol/g.
COCCOCCOC(=O)[C@H](CCC(=O)C=[N+]=[N-])NC(=O)[C@H](Cc1c[nH]c2ccccc12)NC(C)=O has a DON concentration of 2.89 nmol/g.

Block 2
Structure (SMILES): COc1cc(C(=O)OCCCN2CCCN(CCCOC(=O)c3cc(OC)c(OC)c(OCc4ccc([N+](=O)[O-])cc4)c3)CC2)cc(OC)c1OC
Host: mice, male and female, formalin pain
Route: intrathecal
Together with: formalin 5%, 20 µL intraplantar
Direction: higher = more pain
10 nmol, 15-20 min after formalin — “licking and flinching time”: 63 a.u. and 14.1 a.u. and 2.23 a.u. and 61.3 a.u. and 75.5 a.u. and 15.2 a.u. and 7.39 a.u. and 57.6 a.u.
For 10 nmol, 20-25 min after formalin: “licking and flinching time” read 103 a.u. and 7.96 a.u. and 29.2 a.u. and 121 a.u. and 62 a.u. and 4.69 a.u. and 3.9 a.u. and 6.74 a.u.
The “licking and flinching time” was 52.1 a.u. and 58 a.u. and 65 a.u. and 16.6 a.u. and 24.4 a.u. and 17.8 a.u. and 60.8 a.u. and 65.3 a.u. (10 nmol, 25-30 min after formalin).
It gave 16.1 a.u. and 8.9 a.u. and 8.25 a.u. and 7.19 a.u. and 19.2 a.u. and 8.39 a.u. and 3.01 a.u. and 27.2 a.u. for “licking and flinching time” (100 nmol, 5-10 min after formalin).
It gave 193 a.u. and 426 a.u. and 296 a.u. and 148 a.u. and 348 a.u. and 307 a.u. and 266 a.u. for “licking and flinching time” (1 nmol, 10-45 min).
The “licking and flinching time” was 38.1 a.u. and 11.8 a.u. and 38.4 a.u. and 0.96 a.u. and 37.9 a.u. and 63.5 a.u. and 21 a.u. and 47.3 a.u. (10 nmol, 5-10 min after formalin).
For 10 nmol, 0-5 min after formalin: “licking and flinching time” read 181 a.u. and 214 a.u. and 158 a.u. and 191 a.u. and 199 a.u. and 177 a.u. and 164 a.u.
100 nmol, 15-20 min after formalin — “licking and flinching time”: 34.7 a.u. and 71.7 a.u. and 27.6 a.u. and 28.1 a.u. and 18.7 a.u. and 11.1 a.u. and 38.1 a.u. and 10.7 a.u.

Block 3
SMILES: C[C@@H]1CN(c2ccc(-c3cc(C(=O)NCCOCCOCCOCCOCCNC(=O)/C=C/c4[nH]cc(C(=O)N[C@@H](CC(N)=O)c5ccc(F)c(Cl)c5)c4-c4ccc(Cl)cc4F)ccc3F)cc2NC(=O)c2c[nH]c(=O)cc2C(F)(F)F)C[C@H](C)N1C
Effect on: thermal unfolding
Technique: differential scanning fluorimetry
Tested at: 5.5 µM
Direction: higher = more unfolded
DCAF1: DDB1- and CUL4-associated factor 1 (DCAF1, Homo sapiens, UniProt Q9Y4B6)
UniProt Q9Y4B6, sequence (whole entry, looked up): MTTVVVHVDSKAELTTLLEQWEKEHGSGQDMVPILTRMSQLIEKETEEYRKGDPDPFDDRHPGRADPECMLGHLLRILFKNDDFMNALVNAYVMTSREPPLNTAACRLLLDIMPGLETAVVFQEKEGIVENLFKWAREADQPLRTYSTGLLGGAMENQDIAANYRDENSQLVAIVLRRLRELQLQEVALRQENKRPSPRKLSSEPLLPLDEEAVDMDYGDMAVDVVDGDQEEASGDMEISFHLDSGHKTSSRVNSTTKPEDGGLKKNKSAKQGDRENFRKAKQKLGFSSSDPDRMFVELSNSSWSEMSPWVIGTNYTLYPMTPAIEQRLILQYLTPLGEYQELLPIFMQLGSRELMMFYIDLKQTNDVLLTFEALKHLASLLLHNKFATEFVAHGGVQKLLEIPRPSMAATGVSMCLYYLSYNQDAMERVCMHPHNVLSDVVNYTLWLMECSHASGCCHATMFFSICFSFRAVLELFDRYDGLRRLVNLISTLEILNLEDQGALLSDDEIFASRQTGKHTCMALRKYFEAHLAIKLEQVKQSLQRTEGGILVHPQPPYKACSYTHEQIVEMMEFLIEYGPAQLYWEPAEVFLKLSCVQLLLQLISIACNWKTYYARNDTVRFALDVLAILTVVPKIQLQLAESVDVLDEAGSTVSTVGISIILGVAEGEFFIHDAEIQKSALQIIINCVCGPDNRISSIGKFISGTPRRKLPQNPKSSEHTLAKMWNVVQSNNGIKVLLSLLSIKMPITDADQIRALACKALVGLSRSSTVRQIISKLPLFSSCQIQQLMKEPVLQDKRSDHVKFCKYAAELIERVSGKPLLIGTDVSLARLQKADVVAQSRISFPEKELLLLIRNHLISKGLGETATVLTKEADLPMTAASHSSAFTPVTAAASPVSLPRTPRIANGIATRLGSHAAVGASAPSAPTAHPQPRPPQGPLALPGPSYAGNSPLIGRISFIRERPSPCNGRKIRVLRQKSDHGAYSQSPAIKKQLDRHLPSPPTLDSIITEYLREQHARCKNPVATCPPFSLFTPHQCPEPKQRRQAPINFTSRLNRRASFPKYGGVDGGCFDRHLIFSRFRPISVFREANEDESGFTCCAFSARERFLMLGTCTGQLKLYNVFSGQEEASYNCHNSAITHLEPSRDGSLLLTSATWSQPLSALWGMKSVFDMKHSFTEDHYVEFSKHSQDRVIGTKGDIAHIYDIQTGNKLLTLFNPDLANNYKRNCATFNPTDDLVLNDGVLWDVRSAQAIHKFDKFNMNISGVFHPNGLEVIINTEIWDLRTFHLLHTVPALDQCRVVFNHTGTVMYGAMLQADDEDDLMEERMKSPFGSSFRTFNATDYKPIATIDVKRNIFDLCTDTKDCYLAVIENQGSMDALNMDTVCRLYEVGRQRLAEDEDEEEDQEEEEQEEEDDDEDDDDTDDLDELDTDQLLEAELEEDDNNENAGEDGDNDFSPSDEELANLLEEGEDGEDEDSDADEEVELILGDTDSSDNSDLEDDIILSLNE
WDR5: WD repeat-containing protein 5 (WDR5, Homo sapiens, UniProt P61964)
It gave 46300 a.u. for “SYPRO Orange fluorescence” (DCAF1; 79.01 °C).
It gave 13200 a.u. for “SYPRO Orange fluorescence” (DCAF1; 45.4 °C).
The “SYPRO Orange fluorescence” was 34600 a.u. (DCAF1; 90.41 °C).
It gave 39000 a.u. for “SYPRO Orange fluorescence” (DCAF1; 86.01 °C).
The “SYPRO Orange fluorescence” was 9370 a.u. (DCAF1; 29.2 °C).
WDR5; 49.6 °C — “SYPRO Orange fluorescence”: 16300 a.u.
The “SYPRO Orange fluorescence” was 59100 a.u. (DCAF1; 66.81 °C).
The “SYPRO Orange fluorescence” was 49800 a.u. (WDR5; 91.01 °C).

Other studies, line by line
Cn1cc(-c2cccc(CN3CCC4(CC3)COc3c4ccc4c3CN([C@H]3CCC(=O)NC3=O)C4=O)c2)cn1 has a bioavailability of 50.1% (cynomolgus monkey, plasma; oral, 3.02 mg/kg).

Some of these lines once more (block 3):
The “SYPRO Orange fluorescence” was 34600 a.u. (DCAF1; 90.41 °C).
The “SYPRO Orange fluorescence” was 59100 a.u. (DCAF1; 66.81 °C).
It gave 39000 a.u. for “SYPRO Orange fluorescence” (DCAF1; 86.01 °C).
